Published values collected from several papers.
Compare with care: the assays were run in different laboratories. ± marks the error that the study gave.
Organism: Trypanosoma brucei rhodesiense

SMILES = Cc1ncnc2c1c(C(F)(F)F)cn2[C@@H]1O[C@H](CO)[C@@H](O)[C@H]1O; assay = resazurin; test system = STIB-900; conditions = axenic HMI-9 medium; quantity = EC50; value = 1.89 µM
SMILES = O=[N+]([O-])c1ccc(/C=N/N=C/c2ccc(F)cc2)o1; assay = parasite growth, CellTiter-Glo; test system = IL1501 bloodstream form; conditions = 72 h; quantity = IC50; value = 2.42 ± 0.4 µM
SMILES = CCCCOC(=O)/C=C/c1ccc(O)c(O)c1; test system = STIB900; conditions = concentration not given, bloodstream trypomastigotes, active if IC50 < 10 µM; quantity = antitrypanosomal activity; value = active
SMILES = CCOC(=O)CNC(=O)CN1C(=O)S/C(=C\c2ccc(OC)c(O)c2)C1=O; assay = cell viability; test system = IL1501; conditions = 72 h; quantity = IC50; value = > 64 µM
SMILES = O=[N+]([O-])c1ccc(/C=N/N=C/c2ccccc2)o1; assay = parasite growth, CellTiter-Glo; test system = IL1501 bloodstream form; conditions = 72 h; quantity = IC50; value = 4 ± 1.09 µM
SMILES = CCCOC(=O)/C=C/c1ccc(O)c(O)c1; test system = STIB900; conditions = concentration not given, bloodstream trypomastigotes, active if IC50 < 10 µM; quantity = antitrypanosomal activity; value = active
SMILES = CCOC(=O)C(C)NC(=O)CN1C(=O)N/C(=C\c2ccc(C)cc2)C1=O (stereo not drawn); assay = cell viability; test system = IL1501; conditions = 72 h; quantity = IC50; value = > 57 µM
SMILES = O=[N+]([O-])c1ccc(/C=N/N=C/c2ccc(OCc3ccccc3)cc2)s1; assay = parasite growth, CellTiter-Glo; test system = IL1501 bloodstream form; conditions = 72 h; quantity = IC50; value = 4.1 ± 1.13 µM
SMILES = Cc1ncnc2c1c(C1=CCSCC1)cn2[C@@H]1O[C@H](CO)[C@@H](O)[C@H]1O; assay = resazurin; test system = STIB-900; conditions = axenic HMI-9 medium; quantity = EC50; value = > 64 µM
SMILES = O=C(Nc1ccc2c(c1)CN(c1ccc(Cl)cc1)C2=O)N1CC[C@H](F)C1; assay = cell growth, resazurin; test system = STIB-900; conditions = concentration not given, 3 days; quantity = growth inhibition; value = inactive
SMILES = O=[N+]([O-])c1ccc(/C=N/N=C/c2ccc(O)cc2)s1; assay = parasite growth, CellTiter-Glo; test system = IL1501 bloodstream form; conditions = 72 h; quantity = IC50; value = 0.37 ± 0.05 µM
SMILES = CC(C)OC(=O)/C=C/c1ccc(O)c(O)c1; test system = STIB900; conditions = concentration not given, bloodstream trypomastigotes, active if IC50 < 10 µM; quantity = antitrypanosomal activity; value = active

Some of these lines once more:
SMILES = CCCOC(=O)/C=C/c1ccc(O)c(O)c1; test system = STIB900; conditions = concentration not given, bloodstream trypomastigotes, active if IC50 < 10 µM; quantity = antitrypanosomal activity; value = active
